Published values from different studies.
Every numbered part comes from another study and shows a few of its results, in no order. Positions count from the first letter of the parent shown.
Chain of UniProt Q8TDX7 (whole entry, looked up): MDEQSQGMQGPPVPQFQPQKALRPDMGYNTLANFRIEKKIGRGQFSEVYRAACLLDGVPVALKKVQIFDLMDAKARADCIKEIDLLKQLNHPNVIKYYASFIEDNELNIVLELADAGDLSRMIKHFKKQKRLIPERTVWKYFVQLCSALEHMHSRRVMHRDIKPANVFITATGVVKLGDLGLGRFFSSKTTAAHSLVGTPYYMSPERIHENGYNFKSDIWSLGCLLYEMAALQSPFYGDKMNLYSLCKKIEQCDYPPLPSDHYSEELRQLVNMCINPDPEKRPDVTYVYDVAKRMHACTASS
Chain of UniProt Q9BZL6 (whole entry, looked up): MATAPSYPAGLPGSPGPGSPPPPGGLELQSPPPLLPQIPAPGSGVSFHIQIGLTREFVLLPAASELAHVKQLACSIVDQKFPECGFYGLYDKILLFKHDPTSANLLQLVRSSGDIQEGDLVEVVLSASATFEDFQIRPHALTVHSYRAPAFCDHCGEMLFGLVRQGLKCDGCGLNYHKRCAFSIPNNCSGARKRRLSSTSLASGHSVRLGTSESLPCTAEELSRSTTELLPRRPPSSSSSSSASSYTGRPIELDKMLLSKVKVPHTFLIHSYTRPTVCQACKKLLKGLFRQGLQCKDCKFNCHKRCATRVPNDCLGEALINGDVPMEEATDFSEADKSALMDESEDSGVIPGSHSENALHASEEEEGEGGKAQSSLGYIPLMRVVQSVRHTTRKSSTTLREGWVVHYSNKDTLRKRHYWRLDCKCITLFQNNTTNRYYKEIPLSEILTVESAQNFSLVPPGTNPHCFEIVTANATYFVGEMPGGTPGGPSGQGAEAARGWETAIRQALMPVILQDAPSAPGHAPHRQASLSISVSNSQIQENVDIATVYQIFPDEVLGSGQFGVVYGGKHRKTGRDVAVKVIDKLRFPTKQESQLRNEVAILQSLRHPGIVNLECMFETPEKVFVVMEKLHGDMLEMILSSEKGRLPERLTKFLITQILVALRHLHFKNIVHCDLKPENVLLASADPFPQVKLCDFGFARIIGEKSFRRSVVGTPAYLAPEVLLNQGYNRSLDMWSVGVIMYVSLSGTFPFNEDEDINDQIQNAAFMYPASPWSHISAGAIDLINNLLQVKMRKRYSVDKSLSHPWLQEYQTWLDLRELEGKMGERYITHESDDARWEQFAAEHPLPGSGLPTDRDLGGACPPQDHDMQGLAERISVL

Study 1
Target: CCND3, cyclin fold, Cln2 fusion (human)
Method: yeast growth competition, sequencing
Matrix: yeast
Setting: weak parent motif
Relative to: not given
Direction: higher = stronger binding
Parent: viral docking peptide; YKVKRRLVFGADD; partner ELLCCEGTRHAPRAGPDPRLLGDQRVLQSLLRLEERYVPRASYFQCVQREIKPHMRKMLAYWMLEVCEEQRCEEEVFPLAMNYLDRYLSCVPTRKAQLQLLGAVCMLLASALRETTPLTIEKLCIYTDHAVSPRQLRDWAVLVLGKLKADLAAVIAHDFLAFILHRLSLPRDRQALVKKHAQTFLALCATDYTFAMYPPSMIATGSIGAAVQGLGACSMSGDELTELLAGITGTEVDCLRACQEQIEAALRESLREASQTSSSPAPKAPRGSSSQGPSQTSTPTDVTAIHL
Under “normalised enrichment score”, `L7I` is recorded as 0.26.
For `A11M`, “normalised enrichment score” read 0.177.
For `D12P`, “normalised enrichment score” read 0.0218.
For `L7H`, “normalised enrichment score” read -0.124.
`V8W` — result for “normalised enrichment score”: -0.00469.
`V3W`: “normalised enrichment score” -0.382.
For `K4S`, “normalised enrichment score” read 0.225.
`G10I` — result for “normalised enrichment score”: -0.0638.
Under “normalised enrichment score”, `D12G` is recorded as 0.305.
`L7D` — result for “normalised enrichment score”: 0.218.

Study 2
Target: HLA class I histocompatibility antigen, A alpha chain, allele A*26:03 (Homo sapiens, UniProt P04439)
Observed: peptide-MHC binding
Form: peptide
Tested at: concentration not given
`YMYAVSGAL` — result for binding: “inactive”.
For `QTWHGDAPY`, binding read “inactive”.
Under binding, `NLPSKPVWL` is recorded as “inactive”.
`QVIFKCVPK` — result for binding: “inactive”.
`RMIESRMSK`: binding “inactive”.
`FLCPTFTLK` — result for binding: “inactive”.
For `RSLYNTIATLY`, binding read “inactive”.
For `VYSFDESSF`, binding read “inactive”.
For `INTLESMMK`, binding read “inactive”.
For `IIGLLKIFR`, binding read “inactive”.
`NRWKSWFSY` — result for binding: “inactive”.
Under binding, `WEITYLGTT` is recorded as “inactive”.
`GELRKAICL` — result for binding: “inactive”.
`LLRDKDGVY` — result for binding: “inactive”.
`ALYLLDGLR` — result for binding: “inactive”.
For `TQRKKTLGF`, binding read “inactive”.
Under binding, `EIEIEKNKK` is recorded as “inactive”.
`HEVHAVWPG`: binding “inactive”.
`ILRPLGIEY`: binding “inactive”.
`ETIGLVRAL`: binding “active”.
Under binding, `VELQIGWTV` is recorded as “inactive”.
`FQVNRFTGY`: binding “inactive”.
`ETPGSTDNY` — result for binding: “inactive”.
`IHSDQLSKF`: binding “inactive”.
`YQRALHTSI` — result for binding: “inactive”.

Study 3
Target: RING finger protein unkempt homolog, zinc fingers 1-6, GST-SBP tag (UNK, Homo sapiens, UniProt Q9C0B0, residues 30-357)
Method: RNA Bind-n-Seq
Form: RNA
Matrix: in vitro
Tested at: not given
Setting: RNA with constant flanks, human and mouse sites, ends assumed
Relative to: input RNA pool
Direction: higher = stronger binding
Residues (chain): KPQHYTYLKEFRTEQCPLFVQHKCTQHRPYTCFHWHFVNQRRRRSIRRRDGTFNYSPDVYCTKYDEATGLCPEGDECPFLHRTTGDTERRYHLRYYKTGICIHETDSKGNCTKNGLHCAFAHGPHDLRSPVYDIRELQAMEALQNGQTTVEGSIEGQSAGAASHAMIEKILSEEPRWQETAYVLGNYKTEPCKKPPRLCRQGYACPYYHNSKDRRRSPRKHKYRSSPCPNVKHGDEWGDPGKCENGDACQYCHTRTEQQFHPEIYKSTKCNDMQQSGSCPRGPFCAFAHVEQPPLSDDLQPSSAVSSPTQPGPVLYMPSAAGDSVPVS
`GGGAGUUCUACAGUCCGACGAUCCGUGGCUUCGAUUGGGCGGGGGGCGUCCGGAGUUGGCUGGGACGGCCGCCUGCAGCAUGUUUGUACACCAAGUGCAUGCAGUGCCCGAAGAGGUCAGAAGAGGGCAUCAGAUCCCCUAGGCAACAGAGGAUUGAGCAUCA` gave a bound/input enrichment of 0.219 ratio.
With `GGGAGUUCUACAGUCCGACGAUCACAAGUGAAGAGGGAUCUGGAGACUUGGAUAAUCUAGAUGCUAUUCUUGGUGAUCUGACUAGUUCUGACUUUUACAAUAAUUCCAUAUCCUCAAAUGGUAGUCAUCUGGGGACUAAGCAACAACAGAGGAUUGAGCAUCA` the bound/input enrichment was 1.21 ratio.
`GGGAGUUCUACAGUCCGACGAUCUUACAGUCAUUGAUGGACUCUAUUUUUUUAUUAUUACUUGGACCUUGGUCGUUUUUAUACUAGCAAAAUGUCUUGUUUUAAUUUGUGUUUUUUGGGGGGAGGGAGGGAGUGAACUUGCUGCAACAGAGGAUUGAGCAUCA` has a bound/input enrichment of 9.02 ratio.
The bound/input enrichment of `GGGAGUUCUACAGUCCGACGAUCCAGCUUCGGCAGGACAUAGUUGCAGGACGUCUGCCCUGUUCCUUUGCAACCUUAGCAUUAUUAGGUUCUUACACCAUCCAGUCUGAACUGGGAGACUACGACCCAGAACUCCAUGGCGUGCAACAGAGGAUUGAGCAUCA` is reported as 0.569 ratio.
`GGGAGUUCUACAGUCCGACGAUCCGAUUCUCGUUGGCUGAUGGAACUAUAGUGACUGCACAGACAAAAAGCAAACUCUUCCGAAAUCCUGUAACAAAUGAUCGACAUGGCUUUGUCUCAACCCACUUCCUUCAGAGAGAACAGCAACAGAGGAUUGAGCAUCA` has a bound/input enrichment of 0.357 ratio.
With `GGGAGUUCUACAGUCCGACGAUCACUGGCUUCGGCAUCAUCCCUGUGGGCGGCACUUACCUCAUUCAGUCUGUUCCAGCUGAGCUCAAUAUGGAUCACACCGUGGUGCUGCAGCUGGCAGAGAAUGGCUACGUGACUGUCAGUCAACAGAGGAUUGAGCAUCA` the bound/input enrichment was 0.0745 ratio.
The bound/input enrichment of `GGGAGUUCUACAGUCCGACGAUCUGAAUUUUCAAUGUUUAAUCAGUAUGGAUCUGAUCUUCGCAUGAUCUUUUUUGUGAAUGCUAACACCAUUUUGCAGUUUUUUUUUUCUAUUUUAAACAUUUUUCUUUUCACUGCCGACCCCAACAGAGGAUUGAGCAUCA` is reported as 1.03 ratio.
The bound/input enrichment of `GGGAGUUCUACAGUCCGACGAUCGAAGGAGACGGCGAGGGUGAGACCUAUUACUACGAAUACCCCUACUACGAAGACCCCGAAGACCUAGGGAAGGAGCCCACCCCCAGCAAGAAGCCCGUGGAAGCUGCCAAAGAAACCACACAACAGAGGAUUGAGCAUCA` is reported as 0.218 ratio.

Study 4
Target: Interferon regulatory factor 7, full length, phosphomimetic (IRF7, Homo sapiens, UniProt Q92985, residues 1-503, S471D/S472D/S475D/S476D/S477D/S483D/S484D/S487D)
Method: protein-binding microarray
Form: double-stranded DNA, one strand shown
Matrix: in vitro
Tested at: 2200 nM top
Setting: 60-bp whole probe
Added: salmon DNA 0.4 mg/ml
Relative to: random background probes
Direction: higher = stronger binding
Constant ends, left off below: GCCTAGCAC … GTCTTGATTCGCTTGACGCTGCTG
Target sequence (chain): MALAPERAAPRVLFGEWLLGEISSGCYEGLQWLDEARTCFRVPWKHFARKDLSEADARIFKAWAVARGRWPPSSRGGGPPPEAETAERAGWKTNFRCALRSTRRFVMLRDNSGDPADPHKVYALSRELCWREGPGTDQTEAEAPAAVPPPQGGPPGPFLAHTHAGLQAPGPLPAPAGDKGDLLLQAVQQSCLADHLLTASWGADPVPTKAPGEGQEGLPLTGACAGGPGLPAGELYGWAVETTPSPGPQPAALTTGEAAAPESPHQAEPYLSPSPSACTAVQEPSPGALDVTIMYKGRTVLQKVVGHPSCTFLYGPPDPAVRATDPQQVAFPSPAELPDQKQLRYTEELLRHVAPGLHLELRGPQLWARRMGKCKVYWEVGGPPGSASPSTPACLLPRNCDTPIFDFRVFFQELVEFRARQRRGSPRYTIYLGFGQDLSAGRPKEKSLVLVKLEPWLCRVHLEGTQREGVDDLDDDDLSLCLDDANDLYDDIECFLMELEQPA
Under “fitted relative affinity”, `AAAATGATTTTTTTCATATAGTGCTAG` is recorded as -0.381 z-score.
`TCAGCTTTCTCTTTCACACTGTGCTAG`: “fitted relative affinity” 5.84 z-score.
For `TCACACTTGTGTTTGGGACTGTGCTAG`, “fitted relative affinity” read 1.15 z-score.
`TCATTTTGCTTTCTTTTACTGTGCTAG` — result for “fitted relative affinity”: 4.17 z-score.
`TTAGGACTGGGTTGCGGTTAGTGCTAG` — result for “fitted relative affinity”: -0.0344 z-score.
Under “fitted relative affinity”, `GACGCACTGGGGACTGGAGACGTGCTA` is recorded as -0.428 z-score.
Under “fitted relative affinity”, `TCAAATTTTTGCATCGTACTGTGCTAG` is recorded as 1.1 z-score.
`TCAGCTTTGCTTCCTGCACTGTGCTAG` — result for “fitted relative affinity”: 0.9 z-score.

Further values, each from its own experiment
Observed: enzyme activity
Mode: inhibitor
Tested at: 0.5 µM
COc1ccc2c(c1)/C(=C/c1cnc[nH]1)C(=O)N2 gave a remaining activity of 60.2% (PRKD2 (Homo sapiens, UniProt Q9BZL6); relative to: control).
O=C1Nc2ccc3ncsc3c2/C1=C/c1cnc[nH]1 gave a remaining activity of 79.6% (NEK7 (Homo sapiens, UniProt Q8TDX7)).

Some of these lines once more (study 4):
Under “fitted relative affinity”, `AAAATGATTTTTTTCATATAGTGCTAG` is recorded as -0.381 z-score.
`TCAGCTTTCTCTTTCACACTGTGCTAG`: “fitted relative affinity” 5.84 z-score.
For `TCACACTTGTGTTTGGGACTGTGCTAG`, “fitted relative affinity” read 1.15 z-score.
`TCATTTTGCTTTCTTTTACTGTGCTAG` — result for “fitted relative affinity”: 4.17 z-score.
`TTAGGACTGGGTTGCGGTTAGTGCTAG` — result for “fitted relative affinity”: -0.0344 z-score.
Under “fitted relative affinity”, `GACGCACTGGGGACTGGAGACGTGCTA` is recorded as -0.428 z-score.
Under “fitted relative affinity”, `TCAAATTTTTGCATCGTACTGTGCTAG` is recorded as 1.1 z-score.
`TCAGCTTTGCTTCCTGCACTGTGCTAG` — result for “fitted relative affinity”: 0.9 z-score.
